Assay results collected from several papers.
Numbered parts are unrelated; each lists some results of a single study. Several values in a cell are separate wells, animals, samples, runs or records.
Sequence of UniProt P42336 (whole entry, unmodified, looked up): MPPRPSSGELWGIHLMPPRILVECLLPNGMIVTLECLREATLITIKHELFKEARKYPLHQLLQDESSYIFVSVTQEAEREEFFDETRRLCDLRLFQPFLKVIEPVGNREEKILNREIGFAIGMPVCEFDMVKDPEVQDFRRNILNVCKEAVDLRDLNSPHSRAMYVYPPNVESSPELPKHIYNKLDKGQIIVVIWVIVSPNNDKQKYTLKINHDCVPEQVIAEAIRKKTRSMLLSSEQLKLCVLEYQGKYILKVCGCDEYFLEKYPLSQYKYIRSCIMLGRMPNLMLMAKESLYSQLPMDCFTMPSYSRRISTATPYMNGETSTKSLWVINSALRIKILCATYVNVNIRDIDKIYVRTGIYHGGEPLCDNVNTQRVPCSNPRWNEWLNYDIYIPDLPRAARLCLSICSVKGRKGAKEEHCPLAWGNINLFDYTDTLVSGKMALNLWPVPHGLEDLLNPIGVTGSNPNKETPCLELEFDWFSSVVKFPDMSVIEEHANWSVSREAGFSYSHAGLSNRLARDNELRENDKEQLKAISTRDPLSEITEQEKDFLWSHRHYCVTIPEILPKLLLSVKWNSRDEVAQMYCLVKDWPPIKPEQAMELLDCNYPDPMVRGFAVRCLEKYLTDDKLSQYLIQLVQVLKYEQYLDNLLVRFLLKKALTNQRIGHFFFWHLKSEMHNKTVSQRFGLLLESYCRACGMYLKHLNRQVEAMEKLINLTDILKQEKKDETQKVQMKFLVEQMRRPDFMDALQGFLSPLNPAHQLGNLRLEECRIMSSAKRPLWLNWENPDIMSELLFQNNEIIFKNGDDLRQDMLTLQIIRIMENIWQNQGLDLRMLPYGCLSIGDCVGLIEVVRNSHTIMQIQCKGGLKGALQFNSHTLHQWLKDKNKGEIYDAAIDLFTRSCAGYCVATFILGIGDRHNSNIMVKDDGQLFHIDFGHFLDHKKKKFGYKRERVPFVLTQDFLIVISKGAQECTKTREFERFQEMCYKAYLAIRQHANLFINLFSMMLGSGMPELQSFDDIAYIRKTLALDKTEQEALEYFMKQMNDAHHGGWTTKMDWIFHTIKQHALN
Sequence of UniProt Q9HC98 (whole entry, looked up): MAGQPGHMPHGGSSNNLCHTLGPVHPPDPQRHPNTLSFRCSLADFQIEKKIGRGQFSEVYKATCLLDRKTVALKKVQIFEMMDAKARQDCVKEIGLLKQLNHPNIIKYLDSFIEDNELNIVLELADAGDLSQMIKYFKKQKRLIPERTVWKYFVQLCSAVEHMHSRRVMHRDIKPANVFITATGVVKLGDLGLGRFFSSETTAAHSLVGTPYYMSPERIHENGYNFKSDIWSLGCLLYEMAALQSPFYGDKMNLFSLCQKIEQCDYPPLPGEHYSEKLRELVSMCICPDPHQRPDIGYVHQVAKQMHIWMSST
Sequence of UniProt P15056 (whole entry, unmodified, looked up): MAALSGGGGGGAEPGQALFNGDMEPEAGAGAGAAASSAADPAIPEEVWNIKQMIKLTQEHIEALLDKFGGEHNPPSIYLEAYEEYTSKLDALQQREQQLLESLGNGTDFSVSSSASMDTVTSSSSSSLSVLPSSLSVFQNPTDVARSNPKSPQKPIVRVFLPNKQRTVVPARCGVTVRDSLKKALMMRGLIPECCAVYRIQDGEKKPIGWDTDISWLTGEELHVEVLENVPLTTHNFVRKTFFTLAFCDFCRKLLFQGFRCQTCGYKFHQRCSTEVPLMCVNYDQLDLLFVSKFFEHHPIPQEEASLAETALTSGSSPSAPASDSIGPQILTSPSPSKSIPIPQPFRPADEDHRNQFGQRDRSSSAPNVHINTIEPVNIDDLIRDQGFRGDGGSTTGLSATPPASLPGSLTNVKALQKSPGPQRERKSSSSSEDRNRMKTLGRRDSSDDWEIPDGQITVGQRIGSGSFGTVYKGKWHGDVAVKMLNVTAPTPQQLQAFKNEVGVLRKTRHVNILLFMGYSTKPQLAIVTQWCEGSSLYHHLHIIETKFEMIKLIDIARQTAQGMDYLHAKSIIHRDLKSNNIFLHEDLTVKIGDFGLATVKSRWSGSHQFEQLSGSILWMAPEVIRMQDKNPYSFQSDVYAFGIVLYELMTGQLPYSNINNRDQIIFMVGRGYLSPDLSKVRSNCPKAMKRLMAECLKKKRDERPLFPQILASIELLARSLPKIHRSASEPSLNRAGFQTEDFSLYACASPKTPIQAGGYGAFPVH
Sequence of UniProt O95835 (whole entry, looked up): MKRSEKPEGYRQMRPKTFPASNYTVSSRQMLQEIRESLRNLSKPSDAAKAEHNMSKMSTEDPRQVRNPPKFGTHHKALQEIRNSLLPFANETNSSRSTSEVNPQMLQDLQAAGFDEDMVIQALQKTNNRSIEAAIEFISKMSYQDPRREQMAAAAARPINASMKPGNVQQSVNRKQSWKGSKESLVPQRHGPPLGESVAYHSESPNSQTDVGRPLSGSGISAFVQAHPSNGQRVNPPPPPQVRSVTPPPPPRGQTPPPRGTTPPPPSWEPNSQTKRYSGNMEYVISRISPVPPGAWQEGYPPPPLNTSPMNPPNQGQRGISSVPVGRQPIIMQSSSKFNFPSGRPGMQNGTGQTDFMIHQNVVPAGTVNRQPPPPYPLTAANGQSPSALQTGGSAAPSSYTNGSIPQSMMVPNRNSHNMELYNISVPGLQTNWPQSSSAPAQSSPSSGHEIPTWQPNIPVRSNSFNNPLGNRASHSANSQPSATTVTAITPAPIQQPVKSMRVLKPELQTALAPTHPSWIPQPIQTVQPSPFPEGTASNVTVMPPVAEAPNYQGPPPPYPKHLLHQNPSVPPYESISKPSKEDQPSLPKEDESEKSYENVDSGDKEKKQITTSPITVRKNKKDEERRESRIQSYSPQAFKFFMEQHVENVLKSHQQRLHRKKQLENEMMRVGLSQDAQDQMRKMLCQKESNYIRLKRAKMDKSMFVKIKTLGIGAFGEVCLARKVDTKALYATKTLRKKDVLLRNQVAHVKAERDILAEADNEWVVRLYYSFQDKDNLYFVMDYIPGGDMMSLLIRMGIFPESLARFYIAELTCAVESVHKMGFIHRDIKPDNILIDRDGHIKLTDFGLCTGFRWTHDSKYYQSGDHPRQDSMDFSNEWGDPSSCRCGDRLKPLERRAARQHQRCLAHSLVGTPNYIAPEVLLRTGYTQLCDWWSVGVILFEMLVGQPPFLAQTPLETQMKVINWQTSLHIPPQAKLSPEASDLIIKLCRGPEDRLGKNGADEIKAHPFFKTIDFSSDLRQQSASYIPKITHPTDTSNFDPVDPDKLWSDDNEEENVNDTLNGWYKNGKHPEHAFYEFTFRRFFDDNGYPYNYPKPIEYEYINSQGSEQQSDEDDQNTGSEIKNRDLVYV
Sequence of UniProt P21127 (whole entry, looked up): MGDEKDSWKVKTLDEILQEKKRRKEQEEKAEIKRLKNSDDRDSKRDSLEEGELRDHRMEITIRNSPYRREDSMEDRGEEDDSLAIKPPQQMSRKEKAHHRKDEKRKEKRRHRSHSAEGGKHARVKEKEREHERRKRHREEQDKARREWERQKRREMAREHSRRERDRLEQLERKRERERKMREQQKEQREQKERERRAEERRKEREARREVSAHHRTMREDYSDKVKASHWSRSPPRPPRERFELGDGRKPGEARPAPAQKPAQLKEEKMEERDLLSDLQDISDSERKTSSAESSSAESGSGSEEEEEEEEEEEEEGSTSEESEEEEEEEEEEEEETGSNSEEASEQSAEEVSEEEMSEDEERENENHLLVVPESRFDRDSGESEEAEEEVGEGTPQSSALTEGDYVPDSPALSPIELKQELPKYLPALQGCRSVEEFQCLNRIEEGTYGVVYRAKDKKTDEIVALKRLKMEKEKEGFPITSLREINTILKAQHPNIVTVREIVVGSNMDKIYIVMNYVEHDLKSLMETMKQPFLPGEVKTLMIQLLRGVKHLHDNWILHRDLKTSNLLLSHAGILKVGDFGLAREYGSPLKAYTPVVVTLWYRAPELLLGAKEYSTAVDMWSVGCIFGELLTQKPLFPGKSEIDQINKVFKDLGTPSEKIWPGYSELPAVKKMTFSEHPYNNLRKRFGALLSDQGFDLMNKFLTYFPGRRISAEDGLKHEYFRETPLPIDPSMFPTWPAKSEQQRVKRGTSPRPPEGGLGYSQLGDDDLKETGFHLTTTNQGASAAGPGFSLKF

Study 1
Target: Diamine acetyltransferase 1 (Homo sapiens, UniProt P21673)
Action: inhibitor
Concentration: 10 µM
Baseline: control
Construct (P21673 1-171): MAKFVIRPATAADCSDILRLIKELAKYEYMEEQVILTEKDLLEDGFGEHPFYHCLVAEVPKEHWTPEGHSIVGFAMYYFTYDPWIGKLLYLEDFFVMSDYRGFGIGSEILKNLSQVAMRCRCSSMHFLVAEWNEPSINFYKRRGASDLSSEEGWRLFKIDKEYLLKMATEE
| SMILES | remaining activity |
| --- | --- |
| O=c1ccc2ccc(O)cc2o1 | 105% |
| CCCCCCCCCCCCCC(=O)OCC(O)CO (stereo not drawn) | 102% |
| CCCCCCCCCCCCCCCCCCCCCCCCCCCCCCC | 109% |
| CC(C)=CCC/C(C)=C/CC/C(C)=C/CC/C=C(\C)CC/C=C(\C)CCC=C(C)C | 101% |
| O[C@H]1[C@H](O)[C@@H](O)[C@H](O)[C@@H](O)[C@H]1O | 88.3% |
| COc1c(/C=C/C(=O)c2ccc(O)cc2)ccc(O)c1CC=C(C)C | 91.5% |
| CCCCCCCCCCCCO | 99.4% |
| CC(=O)O[C@H]1C(=O)[C@@]2(C)[C@H]([C@H](OC(=O)c3ccccc3)[C@]3(O)C[C@H](OC(=O)[C@H](O)[C@@H](NC(=O)c4ccccc4)c4ccccc4)C(C)=C1C3(C)C)[C@]1(OC(C)=O)CO[C@@H]1C[C@@H]2O | 109% |
| c1ccc2[nH]ccc2c1 | 114% |
| C=C(CC[C@@H](C(=O)O)[C@H]1[C@H](O)C[C@@]2(C)C3=CC[C@@H](C(=C)C)[C@](C)(CCC(=O)O)C3=CC[C@]12C)C(C)C | 117% |
| CC1(C)CC(=O)CC(C)(C)N1 | 87.9% |
| OC1[C@@H](O)[C@H](O)OC[C@@H]1O (stereo in doubt) | 86.3% |
| CC(C)=C1CC[C@@H](C)CC1=O | 92.6% |
| CCCCCCCCCC(C)=O | 87.4% |

Study 2
SMILES: Cc1nc(N2CC[C@@H](O)C2)ncc1-c1cc(C(F)(F)F)cc2[nH]ncc12
Technique: competition with immobilised ligand
Concentration: 1 µM
| target | test | remaining binding [%] |
| --- | --- | --- |
| Cyclin-dependent kinase-like 3 (CDKL3, Homo sapiens, UniProt Q8IVW4) | binding | 100 |
| Phosphatidylinositol 4,5-bisphosphate 3-kinase catalytic subunit alpha isoform (PIK3CA, Homo sapiens, UniProt P42336, E545A) | cell-free assay | 97 |
| Serine/threonine-protein kinase B-raf (BRAF, Homo sapiens, UniProt P15056, V600E) | cell-free assay | 77 |
| Interleukin-1 receptor-associated kinase 4 (IRAK4, Homo sapiens, UniProt Q9NWZ3) | binding | 94 |
| NUAK family SNF1-like kinase 2 (NUAK2, Homo sapiens, UniProt Q9H093) | binding | 67 |
| Serine/threonine-protein kinase MAK (MAK, Homo sapiens, UniProt P20794) | binding | 100 |
| Tyrosine-protein kinase Fyn (FYN, Homo sapiens, UniProt P06241) | binding | 100 |
| Cyclin-dependent kinase 11B (CDK11B, Homo sapiens, UniProt P21127) | cell-free assay | 94 |
| Receptor-interacting serine/threonine-protein kinase 4 (RIPK4, Homo sapiens, UniProt P57078) | binding | 60 |
| Tyrosine-protein kinase SYK (SYK, Homo sapiens, UniProt P43405) | cell-free assay | 100 |
| Phosphatidylinositol 4,5-bisphosphate 3-kinase catalytic subunit alpha isoform (PIK3CA, Homo sapiens, UniProt P42336, E545K) | cell-free assay | 56 |
| Non-receptor tyrosine-protein kinase TYK2, JH1 (TYK2, Homo sapiens, UniProt P29597) | binding | 58 |
| SRSF protein kinase 1 (SRPK1, Homo sapiens, UniProt Q96SB4) | binding | 100 |
| Tyrosine-protein kinase Mer (MERTK, Homo sapiens, UniProt Q12866) | cell-free assay | 100 |
| Ribosomal protein S6 kinase alpha-5, C-terminal kinase domain (RPS6KA5, Homo sapiens, UniProt O75582) | binding | 81 |
| Homeodomain-interacting protein kinase 3 (HIPK3, Homo sapiens, UniProt Q9H422) | binding | 54 |
| Serine/threonine-protein kinase PLK4 (PLK4, Homo sapiens, UniProt O00444) | binding | 93 |
| Tyrosine-protein kinase Fes/Fps (FES, Homo sapiens, UniProt P07332) | cell-free assay | 100 |
| Receptor-type tyrosine-protein kinase FLT3 (FLT3, Homo sapiens, UniProt P36888) | binding | 67 |
| Receptor-type tyrosine-protein kinase FLT3, autoinhibited (FLT3, Homo sapiens, UniProt P36888) | binding | 87 |
| Homeodomain-interacting protein kinase 1 (HIPK1, Homo sapiens, UniProt Q86Z02) | binding | 74 |
| Serine/threonine-protein kinase LATS1 (LATS1, Homo sapiens, UniProt O95835) | binding | 81 |
| Casein kinase II subunit alpha (CSNK2A1, Homo sapiens, UniProt P68400) | cell-free assay | 85 |
| Casein kinase I isoform gamma-2 (CSNK1G2, Homo sapiens, UniProt P78368) | cell-free assay | 100 |
| Serine/threonine-protein kinase Nek6 (NEK6, Homo sapiens, UniProt Q9HC98) | binding | 89 |

Study 3
Cell line: mouse MPNST tumor cells
Technique: high-content immunofluorescence imaging
Refers to: nuclear SOX9
Concentration: 10 µM
Time: 12 h
Notes: mean of 2 replicates
Baseline: DMSO control
Reading: higher = more nuclear SOX9
| Structure (SMILES) | nuclear SOX9 intensity |
| --- | --- |
| O=C(NCC(=O)N1CCCC1)Nc1ccc2cnccc2c1 | 99.7 % of DMSO and 85.1 % of DMSO |
| CN[C@@H]1[C@@H](O[C@H]2O[C@H](CO)[C@@H](N)[C@H](O)[C@H]2O)OC2C[C@@H](N)[C@@H](O[C@H]3[C@H](O)[C@@H](O)[C@H](N)C[C@@H]3N)OC2[C@@H]1O (stereo partly drawn) | 72.2 % of DMSO |
| Cc1cc(NC(=O)C(c2ccccc2)N2CCCc3ccccc32)no1 (stereo not drawn) | 90.5 % of DMSO |
| CCOc1cc(C(=O)N2CCC(N3CCN(C)CC3)CC2)ccc1Nc1ncc2c(n1)N(S(C)(=O)=O)c1ccccc1C(=O)N2C | 124 % of DMSO |
| NCCCCCCNS(=O)(=O)c1cccc2c(Cl)cccc12 | 100 % of DMSO |
| CN1CCc2ccccc2Cc2[nH]c3ccccc3c2CC1 | 107 % of DMSO |
| Cc1oc2ccccc2c1CNC(=O)NCc1cccs1 | 101 % of DMSO |
| C[N+](C)(C)CCCCCNCC12CC3CC(CC(C3)C1)C2 | 112 % of DMSO |
| CCN(CCNC(=O)Nc1ccccc1Br)c1cccc(C)c1 | 121 % of DMSO |
| c1ccc(C2CN3CCSC3=N2)cc1 (stereo not drawn) | 106 % of DMSO |
| COc1ccc2[nH]c([S+]([O-])Cc3ncc(C)c(OC)c3C)nc2n1 (stereo not drawn) | 112 % of DMSO |
| CCOC(=O)C1=C(C)NC(=S)NC1c1cccc(O)c1 (stereo not drawn) | 98.3 % of DMSO |
| CC(=O)O[C@H]1C[C@@]2(C)[C@@H](C[C@@H](O)[C@H]3[C@@]4(C)CC[C@@H](O)[C@@H](C)[C@@H]4CC[C@@]32C)/C1=C(\CCC=C(C)C)C(=O)O | 98.3 % of DMSO |
| CC(=O)c1ccc(S(=O)(=O)NC(=O)NC2CCCCC2)cc1 | 91.7 % of DMSO and 117 % of DMSO |

Study 4
Sample: 1,9-decadiene/PBS
pH: 7.4
| SMILES | logD |
| --- | --- |
| CC(C)C[C@@H]1NC(=O)[C@H](Cc2cscn2)NC(=O)[C@@H](CC(C)C)NC(=O)[C@H](CC(C)C)NC(=O)[C@@H](CCC(=O)N2CCCC2)NC(=O)[C@H](CC(C)C)NC(=O)[C@@H](CC(C)C)NC1=O | 0.128 |
| CC(C)C[C@@H]1NC(=O)[C@H](Cc2cscn2)NC(=O)[C@H](CCC(=O)N2CCCC2)NC(=O)[C@H](C)NC(=O)[C@@H](Cc2cscn2)NC(=O)[C@H](CC(C)C)NC(=O)[C@@H](CC(C)C)NC1=O | -2.67 |
| CC(C)C[C@@H]1NC(=O)[C@H](CC(C)C)NC(=O)[C@@H](C(C)C)NC(=O)[C@H](CC(C)C)NC(=O)[C@@H](Cc2cscn2)NC(=O)[C@H](Cc2cscn2)NC(=O)[C@H](CCC(=O)N2CCCC2)NC1=O | -1.64 |
| CC(C)C[C@@H]1NC(=O)[C@H](CC(C)C)NC(=O)[C@@H](CC(C)C)NC(=O)[C@H](C(C)C)NC(=O)[C@@H](Cc2cscn2)NC(=O)[C@@H](CC(C)C)NC(=O)[C@H](C)NC1=O | -0.344 |
| CC(C)C[C@@H]1NC(=O)[C@H](CC(C)C)NC(=O)[C@@H](CC(C)C)NC(=O)[C@H](C)NC(=O)[C@H](C(C)C)NC(=O)[C@H](C)NC(=O)[C@H](C)NC1=O | -1.67 |
| CC(C)C[C@@H]1NC(=O)[C@H](C)NC(=O)[C@@H](CC(C)C)NC(=O)[C@@H](CC(C)C)NC(=O)[C@@H](Cc2cscn2)NC(=O)[C@H](CC(C)C)NC(=O)[C@@H](CC(C)C)NC1=O | 0.106 |
| CC(C)C[C@@H]1NC(=O)[C@H](Cc2cscn2)NC(=O)[C@@H](CC(C)C)NC(=O)[C@H](CC(C)C)NC(=O)[C@@H](Cc2cscn2)NC(=O)[C@H](CC(C)C)NC(=O)[C@@H](CC(C)C)NC1=O | -0.31 |
| CC(C)C[C@@H]1NC(=O)[C@H](C)NC(=O)[C@H](CCC(=O)N2CCCC2)NC(=O)[C@H](CC(C)C)NC(=O)[C@H](C(C)C)NC(=O)[C@H](CC(C)C)NC(=O)[C@@H](CC(C)C)NC1=O | -0.934 |
| CC(C)C[C@@H]1NC(=O)[C@H](CC(C)C)NC(=O)[C@H](CC(C)C)NC(=O)[C@H](CC(C)C)NC(=O)[C@@H](Cc2cscn2)NC(=O)[C@H](C)NC(=O)[C@H](CCC(=O)N2CCCC2)NC1=O | -1.71 |
| CC(C)C[C@@H]1NC(=O)[C@H](C)NC(=O)[C@@H](CC(C)C)NC(=O)[C@@H](CCC(=O)N2CCCC2)NC(=O)[C@H](CC(C)C)NC(=O)[C@@H](CC(C)C)NC(=O)[C@H](CC(C)C)NC1=O | -0.148 |
| CC(C)C[C@@H]1NC(=O)[C@H](CCC(=O)N2CCCC2)NC(=O)[C@@H](C(C)C)NC(=O)[C@H](C(C)C)NC(=O)[C@H](CC(C)C)NC(=O)[C@@H](CC(C)C)NC(=O)[C@H](CC(C)C)NC1=O | 0.354 |
| CC(C)C[C@@H]1NC(=O)[C@H](C)NC(=O)[C@H](CC(C)C)NC(=O)[C@@H](CC(C)C)NC(=O)[C@H](CC(C)C)NC(=O)[C@@H](C)NC(=O)[C@H](CCC(=O)N2CCCC2)NC1=O | -2 |
| CC(C)C[C@@H]1NC(=O)[C@H](CC(C)C)NC(=O)[C@@H](C(C)C)NC(=O)[C@H](C)NC(=O)[C@@H](Cc2cscn2)NC(=O)[C@H](C)NC(=O)[C@H](CCC(=O)N2CCCC2)NC1=O | -3.48 |

A few entries again (study 1):
| SMILES | remaining activity |
| --- | --- |
| CC(=O)O[C@H]1C(=O)[C@@]2(C)[C@H]([C@H](OC(=O)c3ccccc3)[C@]3(O)C[C@H](OC(=O)[C@H](O)[C@@H](NC(=O)c4ccccc4)c4ccccc4)C(C)=C1C3(C)C)[C@]1(OC(C)=O)CO[C@@H]1C[C@@H]2O | 109% |
| C=C(CC[C@@H](C(=O)O)[C@H]1[C@H](O)C[C@@]2(C)C3=CC[C@@H](C(=C)C)[C@](C)(CCC(=O)O)C3=CC[C@]12C)C(C)C | 117% |
| CC(C)=CCC/C(C)=C/CC/C(C)=C/CC/C=C(\C)CC/C=C(\C)CCC=C(C)C | 101% |
| CCCCCCCCCC(C)=O | 87.4% |
| O=c1ccc2ccc(O)cc2o1 | 105% |
| CC1(C)CC(=O)CC(C)(C)N1 | 87.9% |
| O[C@H]1[C@H](O)[C@@H](O)[C@H](O)[C@@H](O)[C@H]1O | 88.3% |
| OC1[C@@H](O)[C@H](O)OC[C@@H]1O (stereo in doubt) | 86.3% |
